{"data": "Assay results collected from several papers", "note": "Numbered parts are unrelated; each lists some results of a single study. “And” joins repeats or separate records; there may be more than shown. Positions count from the first letter of the parent shown."}
{"data": "Set 1", "target": "Sal-like protein 4, full length isoform B (SALL4, Homo sapiens, UniProt Q9UJQ4-2, residues 1-616)", "technique": "universal PBM", "form": "double-stranded DNA, one strand shown", "matrix": "in vitro", "concentration": "not given", "setting": "8-mer, flanks averaged, mean of replicates", "reading": "higher = stronger binding", "Target sequence (chain)": "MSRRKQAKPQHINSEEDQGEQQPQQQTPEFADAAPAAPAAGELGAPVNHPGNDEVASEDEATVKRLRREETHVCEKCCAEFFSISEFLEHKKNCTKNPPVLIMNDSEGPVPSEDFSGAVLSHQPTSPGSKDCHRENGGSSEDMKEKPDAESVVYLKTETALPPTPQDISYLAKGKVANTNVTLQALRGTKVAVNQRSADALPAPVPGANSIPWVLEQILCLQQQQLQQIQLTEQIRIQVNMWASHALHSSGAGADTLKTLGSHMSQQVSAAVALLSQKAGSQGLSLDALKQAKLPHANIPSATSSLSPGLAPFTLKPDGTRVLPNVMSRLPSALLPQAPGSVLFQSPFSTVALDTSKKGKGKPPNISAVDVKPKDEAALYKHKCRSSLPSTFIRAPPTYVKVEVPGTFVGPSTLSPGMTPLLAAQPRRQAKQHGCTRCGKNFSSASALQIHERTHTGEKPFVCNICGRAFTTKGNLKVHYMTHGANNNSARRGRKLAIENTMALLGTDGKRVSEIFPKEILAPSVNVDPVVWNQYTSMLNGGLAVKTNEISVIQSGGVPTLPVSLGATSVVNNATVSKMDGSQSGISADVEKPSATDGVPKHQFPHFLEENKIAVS"}
{"Strand": "CCCCTATA", "E-score": 0.125}
{"Strand": "CCAGAGTC", "E-score": -0.143}
{"Strand": "ATAGGTTG", "E-score": -0.104}
{"Strand": "ACGCCGAC", "E-score": -0.214}
{"Strand": "ACTTAGGC", "E-score": -0.259}
{"Strand": "AAGGGAAG", "E-score": 0.153}
{"Strand": "CCCACTTA", "E-score": 0.0944}
{"Strand": "CCACCCTA", "E-score": -0.0871}
{"data": "Set 2", "target": "Interferon regulatory factor 3, full length, phosphomimetic (IRF3, Homo sapiens, UniProt Q14653, residues 1-427, S386D/S396D/S398D/S402D/T404D/S405D)", "technique": "protein-binding microarray", "form": "double-stranded DNA, one strand shown", "matrix": "in vitro", "concentration": "2540 nM top", "setting": "60-bp whole probe", "with": "salmon DNA 0.4 mg/ml", "reference": "random background probes", "reading": "higher = stronger binding", "all sequences stand within": "GCCTAGCAC … GTCTTGATTCGCTTGACGCTGCTG", "Target sequence (chain)": "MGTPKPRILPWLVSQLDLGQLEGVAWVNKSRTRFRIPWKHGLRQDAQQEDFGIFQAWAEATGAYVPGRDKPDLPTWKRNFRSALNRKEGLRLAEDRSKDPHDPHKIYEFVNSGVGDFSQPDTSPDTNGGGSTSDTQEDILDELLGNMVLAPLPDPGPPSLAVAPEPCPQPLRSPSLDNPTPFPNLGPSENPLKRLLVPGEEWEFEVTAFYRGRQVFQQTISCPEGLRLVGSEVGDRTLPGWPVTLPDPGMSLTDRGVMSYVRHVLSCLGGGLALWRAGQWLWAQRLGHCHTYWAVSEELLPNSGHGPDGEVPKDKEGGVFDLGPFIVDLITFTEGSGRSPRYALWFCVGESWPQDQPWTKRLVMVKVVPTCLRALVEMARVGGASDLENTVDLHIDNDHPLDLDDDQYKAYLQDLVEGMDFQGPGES"}
{"Strand": "CTGAGGCTGTGTTTTCACTTTGTGCTA", "fitted relative affinity [z-score]": -0.0115}
{"Strand": "GACGATTCCGGGTTTCGAGACGTGCTA", "fitted relative affinity [z-score]": 1.3}
{"Strand": "TTAGGTTTCCTTTCGCTTTAGTGCTAG", "fitted relative affinity [z-score]": 9.06}
{"Strand": "TTAGTTATCGACACTGGGTTAGTGCTA", "fitted relative affinity [z-score]": -0.0293}
{"Strand": "CACGGTTTCGGACTGGGGACGTGCTAG", "fitted relative affinity [z-score]": 3.95}
{"Strand": "GACGAACTGGGGTTTCGACACGTGCTA", "fitted relative affinity [z-score]": 0.306}
{"Strand": "TCCAAATTGTCTCTGTCCCTGTGCTAG", "fitted relative affinity [z-score]": 0.714}
{"Strand": "TCAATCATCCGTTTCTTACTGTGCTAG", "fitted relative affinity [z-score]": 1.7}
{"data": "Set 3", "target": "HLA class I histocompatibility antigen, A alpha chain, allele A*26:03 (Homo sapiens, UniProt P04439)", "observed": "peptide-MHC binding", "form": "peptide", "concentration": "concentration not given"}
{"Molecule": "EFKQILTDF", "binding": "inactive"}
{"Molecule": "WEITYLGTT", "binding": "inactive"}
{"Molecule": "EVIKYGIIY", "binding": "inactive"}
{"Molecule": "LTFLHTLYK", "binding": "inactive"}
{"Molecule": "SYLIRALTL", "binding": "inactive"}
{"Molecule": "ETRYSWAIL", "binding": "inactive"}
{"Molecule": "ALFHKVQSY", "binding": "inactive"}
{"Molecule": "IYTVIYYIF", "binding": "inactive"}
{"Molecule": "IQFMHEQGY", "binding": "inactive"}
{"Molecule": "DVRPRHPGY", "binding": "inactive"}
{"Molecule": "ASFKAGKLR", "binding": "inactive"}
{"Molecule": "QGKQHLHSL", "binding": "inactive"}
{"Molecule": "TMLYNKMEF", "binding": "inactive"}
{"Molecule": "EEIRRIWRQ", "binding": "inactive"}
{"Molecule": "LFNTIATLY", "binding": "inactive"}
{"Molecule": "ILRPLGIEY", "binding": "inactive"}
{"Molecule": "LLRDKDGVY", "binding": "inactive"}
{"Molecule": "KYFVRSTEK", "binding": "inactive"}
{"Molecule": "PRFGSCYFL", "binding": "inactive"}
{"Molecule": "EQRLIDICV", "binding": "inactive"}
{"Molecule": "NRWKSWFSY", "binding": "inactive"}
{"Molecule": "NLPSKPVWL", "binding": "inactive"}
{"Molecule": "QVIFKCVPK", "binding": "inactive"}
{"Molecule": "IEFIEVVRL", "binding": "inactive"}
{"Molecule": "RVFPGDHFY", "binding": "inactive"}
{"data": "Set 4", "target": "CCND3, cyclin fold, Cln2 fusion (human)", "technique": "yeast growth competition, sequencing", "matrix": "yeast", "setting": "weak parent motif", "reference": "not given", "reading": "higher = stronger binding", "parent": "viral docking peptide; YKVKRRLVFGADD"}
{"Change": "YKVKRRLVFLADD [G10L]", "normalised enrichment score": 0.0236}
{"Change": "YNVKRRLVFGADD [K2N]", "normalised enrichment score": 0.245}
{"Change": "YKVKRNLVFGADD [R6N]", "normalised enrichment score": 0.0284}
{"Change": "YKVKRRLPFGADD [V8P]", "normalised enrichment score": -0.225}
{"Change": "YKVKRRLVFGEDD [A11E]", "normalised enrichment score": 0.563}
{"Change": "YKVERRLVFGADD [K4E]", "normalised enrichment score": -0.291}
{"Change": "YKVKGRLVFGADD [R5G]", "normalised enrichment score": -0.155}
{"Change": "YKVKRRLVFQADD [G10Q]", "normalised enrichment score": 0.285}
{"data": "Mixed results"}
{"Substance": "meglumine antimoniate", "organism": "Leishmania infantum chagasi", "test system": "MHOM/BR/1972/BH46, golden hamster chronic infection, spleen", "conditions": "intraperitoneal, 50 mg/kg/day, 10 days", "measurement": "parasite load", "result": "43000 amastigotes/g tissue and 7660 amastigotes/g tissue and 49 amastigotes/g tissue and 114 amastigotes/g tissue and 10000 amastigotes/g tissue"}
{"note": "A few entries again (set 3):"}
{"Molecule": "NRWKSWFSY", "binding": "inactive"}
{"Molecule": "NLPSKPVWL", "binding": "inactive"}
{"Molecule": "QVIFKCVPK", "binding": "inactive"}
{"Molecule": "IEFIEVVRL", "binding": "inactive"}
{"Molecule": "RVFPGDHFY", "binding": "inactive"}
